{"data": "Published values gathered from unrelated publications", "note": "Each numbered part is a random draw from the data of one study; scales do not carry over between parts. Changes are numbered by the printed parent chain."}
{"data": "Sample 1", "target": "Probable WRKY transcription factor 11, DNA-binding domain (WRKY11, Arabidopsis thaliana, UniProt Q9SV15, residues 228-325)", "method": "DNA-protein interaction ELISA", "molecule type": "double-stranded DNA, one strand shown", "sample": "in vitro, bacterial lysate", "tested at": "not given", "setting": "whole dsDNA probe, crude lysate protein", "relative to": "highest signal in screen", "direction": "higher = stronger binding", "Construct (chain)": "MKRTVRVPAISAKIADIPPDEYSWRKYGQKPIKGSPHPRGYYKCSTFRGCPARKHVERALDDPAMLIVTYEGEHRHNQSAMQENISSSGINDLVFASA"}
{"Sequence": "AAAAAAACCGCGTCGCGGCCCGGGAAAA", "relative absorbance": "12.1 % of maximum"}
{"Sequence": "AAAAAACCTTACTGTTGATTCTGGTTAAAA", "relative absorbance": "15.6 % of maximum"}
{"Sequence": "AAAAAAGGGGTCCTTTTCCAATGTCTAAAA", "relative absorbance": "16.4 % of maximum"}
{"Sequence": "AAAAAAACATCCACACCCGCGGCGCGAAAA", "relative absorbance": "13.3 % of maximum"}
{"Sequence": "AAAAAATTACTATTACACACTTGGGGAAAA", "relative absorbance": "14.7 % of maximum"}
{"Sequence": "AAAAAAGGGTATACTCGCAGCCCCTAAAAA", "relative absorbance": "13 % of maximum"}
{"Sequence": "AAAAAAGTTATTATACCTGATCTCGCAAAA", "relative absorbance": "13 % of maximum"}
{"Sequence": "AAAAAACCCCAGATTTCCAGCAGTTCAAAA", "relative absorbance": "14.4 % of maximum"}
{"data": "Sample 2", "target": "PABPC1L2, full length, GST fusion (mouse, UniProt A0ABA7IW68)", "method": "RNAcompete", "molecule type": "RNA", "sample": "in vitro", "tested at": "20 nM", "setting": "7-mer, probes averaged, single round", "relative to": "mean of 7-mers", "direction": "higher = stronger binding", "Residues (chain)": "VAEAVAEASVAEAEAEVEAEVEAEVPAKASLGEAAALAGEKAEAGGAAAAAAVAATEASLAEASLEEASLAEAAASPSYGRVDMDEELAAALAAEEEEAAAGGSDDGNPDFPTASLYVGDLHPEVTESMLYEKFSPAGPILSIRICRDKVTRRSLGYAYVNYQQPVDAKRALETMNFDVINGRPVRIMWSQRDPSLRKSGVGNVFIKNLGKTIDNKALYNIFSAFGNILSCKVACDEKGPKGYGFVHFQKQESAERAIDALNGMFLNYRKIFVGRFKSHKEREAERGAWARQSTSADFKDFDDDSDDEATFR"}
{"Sequence": "UUGAGGA", "7-mer Z-score": -0.0863}
{"Sequence": "CUCUCUA", "7-mer Z-score": -0.296}
{"Sequence": "GAGAGUG", "7-mer Z-score": -0.0047}
{"Sequence": "GGACUGA", "7-mer Z-score": 0.138}
{"Sequence": "AGUAAUA", "7-mer Z-score": -0.0301}
{"Sequence": "GAAGGAU", "7-mer Z-score": 0.0334}
{"Sequence": "AGUCUGC", "7-mer Z-score": -0.324}
{"Sequence": "AUCUGAU", "7-mer Z-score": -0.0953}
{"data": "Mixed results", "P1": "viral docking peptide; KKVKRRLFETREL; partner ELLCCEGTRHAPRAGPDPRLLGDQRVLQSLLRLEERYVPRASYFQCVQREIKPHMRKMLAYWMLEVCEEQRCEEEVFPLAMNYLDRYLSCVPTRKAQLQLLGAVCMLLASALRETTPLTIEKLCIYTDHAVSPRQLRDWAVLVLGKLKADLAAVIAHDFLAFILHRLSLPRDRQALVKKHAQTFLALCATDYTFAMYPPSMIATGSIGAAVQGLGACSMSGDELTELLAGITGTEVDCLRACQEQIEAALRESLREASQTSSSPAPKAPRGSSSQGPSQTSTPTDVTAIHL"}
{"Molecule": "FARSB (Homo sapiens, UniProt Q9NSD9)", "target or system": "FARSA (Homo sapiens, UniProt Q9Y285)", "test": "cross-linking MS", "test system": "cell fractions", "setting": "added: DSSO", "quantity": "cross-linked residues", "result": "K467 to K481"}
{"Molecule": "P1 K1A", "target or system": "CCND3, cyclin fold, Cln2 fusion (human)", "test": "yeast growth competition, sequencing", "test system": "yeast", "setting": "weak parent motif", "how to read": "relative to: not given, higher = stronger binding", "quantity": "normalised enrichment score", "result": 0.184}
{"Molecule": "ARVCF (Homo sapiens, UniProt O00192)", "target or system": "DRC11 (Homo sapiens, UniProt Q86XH1)", "test": "cross-linking MS", "test system": "cell fractions", "setting": "added: DMTMM", "quantity": "cross-linked residues", "result": "K561 to E650"}
{"Molecule": "YWHAE (Homo sapiens, UniProt P62258)", "target or system": "ATP6V1G3 (Homo sapiens, UniProt Q96LB4)", "test": "cross-linking MS", "test system": "cell fractions", "setting": "added: DMTMM", "quantity": "cross-linked residues", "result": "E70 to K26"}
